Experimental data collected from several papers.
Numbers after ± are the reported error.

CCCCN1CCC(COC(=O)c2ccc(N)c(O[11CH3])c2)CC1  inhibition (radioligand hydrolysis, esterase inhibitor; rhesus monkey whole blood; concentration not given): 94 ± 2%
COc1cc2c(Oc3ccc4[nH]c(C)cc4c3F)ccnc2cc1OCC1(N)CC1  QTc prolongation incidence (paediatric refractory sarcoma patients; 8 mg): 0%
CO[C@H]1C[C@@H]2CC[C@@H](C)[C@@](O)(O2)C(=O)C(=O)N2CCCC[C@H]2C(=O)O[C@H]([C@H](C)C[C@@H]2CC[C@@H](OC(=O)NCCOCCOCCOCCOCCOCCOCCOCCOCCC(=O)N3CCc4cc(Cn5nc(-c6ccc7oc(N)nc7c6)c6c(N)ncnc65)ccc4C3)[C@H](OC)C2)C[C@@H](O)[C@H](C)/C=C(\C)[C@@H](O)[C@@H](OC)C(=O)[C@H](C)C[C@H](C)/C=C/C=C/C=C/1C  incidence of Fatigue TRAE (patients with advanced solid tumours; intravenous, dose not given, any grade): 42.1%
O=c1ccc2ncc(=O)n3c2n1C[C@H]3CN1CCC(NCc2cc3c(cn2)OCCC3)CC1  adverse event incidence (measured: skin subcutaneous tissue disorders; healthy human participants; oral, 1500 mg, added: rifampicin 600 mg): 0%
C[C@@H]1OC(=O)NN=C1c1ccc(-c2ccc(F)cc2)c(C(F)(F)F)c1  patients with TEAE (phase I trial, measured: alkaline phosphatase increased; human patients; 10 mg load, 0.5 mg daily, worst grade 1): 0%
C[C@]1(CO)Cc2ncn(-c3ccc(C#N)c(Cl)c3)c2C(=O)O1  subjects with drug-related headache (human, Chinese; 60 mg single dose): 0%
O=C(Nc1ccc(Cl)cc1)Nc1ccc(Cl)c(Cl)c1  final permeate concentration (ultrafiltration; cow milk whey; 200 nM nominal in whole milk): 0.35 nM
CN1CCN(S(=O)(=O)c2cc([N+](=O)[O-])ccc2N(CCOS(C)(=O)=O)CCOS(C)(=O)=O)CC1  albumin (naive NOD/SCID mice, pooled blood; intraperitoneal, 12.5 mg/kg, week 4): 43 g/L
CC[C@H](C)[C@H](NC(=O)[C@H](CC(C)C)NC(=O)[C@H](CCCCN)NC(=O)[C@@H](NC(=O)[C@H](C)NC(=O)[C@H](CCC(=O)O)NC(=O)[C@H](Cc1c[nH]cn1)NC(=O)[C@@H](NC(=O)[C@H](CCCCN)NC(=O)[C@H](CCC(N)=O)NC(=O)[C@H](Cc1ccccc1)NC(=O)[C@@H](NC(=O)[C@H](CCCCN)NC(=O)[C@H](CCCCN)NC(=O)[C@H](CC(C)C)NC(=O)[C@H](C)N)C(C)C)[C@@H](C)CC)[C@@H](C)CC)C(N)=O  HC10 (hemolysis; mouse erythrocytes): 128 µM
COc1ccc2nc3cc(Cl)ccc3c(Nc3cc(CN4CCCC4)c(O)c(CN4CCCC4)c3)c2n1  basophils (mouse, blood; intraperitoneal, 28 mg/kg): 1.51%
CC(C)(c1ccccc1)c1cc(-n2nc3ccccc3n2)c(O)c(C(C)(C)c2ccccc2)c1  daily dermal exposure dose (human aged 6-11 years; concentration not given, spray sunscreen, 95th percentile): 68 ng/kg/day
CC(C)C(=O)OC[C@H]1O[C@@H](n2ccc(NO)nc2=O)[C@H](O)[C@@H]1O  bench-top stability (rat maternal placenta dialysate; 5 ng/mL, 6 h, room temperature, low concentration, added: NHC 25 ng/mL): 99.71 ± 0.27%
CC(C)[C@@H]1NC(=O)CNC(=O)[C@H](CC(N)=O)NC(=O)[C@H](CCCNC(=N)N)NC(=O)[C@H](Cc2ccc(O)cc2)NC(=O)[C@H](C(C)C)NC(=O)[C@@H](NC(=O)[C@@H](NC(=O)[C@H](CC(N)=O)NC(=O)[C@H](Cc2c[nH]c3ccccc23)NC(=O)[C@H](C)NC(=O)[C@H](Cc2ccccc2)NC(=O)CN)C(C)C)CSSC[C@@H](C(=O)N[C@@H](Cc2cnc[nH]2)C(=O)N[C@@H](CCCNC(=N)N)C(=O)N[C@@H](CCCNC(=N)N)C(=O)N[C@@H](C)C(=O)N[C@@H](CC(N)=O)C(N)=O)NC(=O)[C@H](C(C)C)NC(=O)[C@H](CCCNC(=N)N)NC1=O  mean platelet volume (ICR mice, blood; intraductal mammary, 5 mg/kg, day 5): 6.6 ± 0.3 fL
Nc1ncnc2c1ncn2[C@@H]1O[C@@H]2COP(=O)([S-])O[C@@H]3[C@H](O)[C@@H](COP([O-])(=S)O[C@H]2[C@H]1O)O[C@H]3n1cnc2c(N)ncnc21.[Na+].[Na+] (stereo partly drawn)  RDW-SD (non-tumor-bearing mice, blood; intravenous, 1 mg/kg, toxicity study): 20.3 ± 0.83 fL
O=C(O)CCCOc1ccc(F)cc1-c1cc(-c2ccccc2C(F)(F)F)n(-c2ccccc2)n1  organ weight (female Crl:CD(SD) rats, heart; intravenous, 25 µg/kg, 1 d): 0.79 ± 0.07 g
[O-][S+]1CCc2nc(N3CCC(c4ncc(Cl)cn4)CC3)nc(NC3(CO)CCC3)c21 (stereo not drawn)  subjects with adverse events (phase I trial, measured: anal incontinence; idiopathic pulmonary fibrosis patients; 18 mg twice daily): 10%
CCCCCCCCCCCCCCCC(=O)N[C@@H](CCC(=O)NCCCC[C@H](NC(=O)[C@H](CC(=O)O)NC(=O)[C@H](CO)NC(=O)[C@@H](NC(=O)[C@H](Cc1ccccc1)NC(=O)[C@@H](NC(=O)CNC(=O)[C@H](CCC(N)=O)NC(=O)[C@H](CO)NC(=O)[C@@H](N)Cc1c[nH]cn1)[C@@H](C)O)[C@@H](C)O)C(=O)N[C@@H](CO)C(=O)N[C@@H](CCC(=O)O)C(=O)N[C@@H](Cc1ccc(O)cc1)C(=O)N[C@@H](CC(C)C)C(=O)N[C@@H](CC(=O)O)C(=O)N[C@@H](CO)C(=O)N[C@@H](CCC(=O)O)C(=O)N[C@@H](CCCNC(=N)N)C(=O)N[C@@H](C)C(=O)N[C@@H](CCCNC(=N)N)C(=O)N[C@@H](CC(=O)O)C(=O)N[C@@H](Cc1ccccc1)C(=O)N[C@H](C(=O)N[C@@H](C)C(=O)N[C@@H](Cc1c[nH]c2ccccc12)C(=O)N[C@@H](CC(C)C)C(=O)N[C@@H](CCC(=O)O)C(=O)N[C@@H](C)C(=O)NCC(=O)NCC(=O)O)C(C)C)C(=O)O  treatment-related adverse events (measured: Flatulence; humans CrCl at least 90 mL/min; subcutaneous, 100 µg single dose): 0%
N[C@@H]1c2ccccc2OC12CCN(c1cnc3c(N4CCCc5ncccc54)n[nH]c3n1)CC2  TEAE leading to withdrawal (advanced metastatic solid tumour patients; oral, 75 mg once daily): 28.6%
Cc1ncnc2c1ccn2[C@@H]1C[C@H](Oc2cc(C(F)F)c(F)c3c2CNCC3)[C@@H](O)[C@H]1O  thrombocytopenia incidence (patients; grade ≥3; baseline: patients): 6%
O=C(c1ccc(F)c(F)c1Nc1ccc(I)cc1F)N1CC(O)([C@@H]2CCCCN2)C1  adverse events of special interest (human patients; oral, dose not given, dose escalation, tablet): 33%
COc1ccc(-c2c(-c3ccc(C#N)c(F)c3)nc(N3CCC(N)CC3)n(C)c2=O)cc1F  serious adverse event incidence (measured: Cystitis; human patients; oral, 60 mg, dose expansion): 0%
CC(C)C[C@H](NC(=O)[C@H](CCCCN)NC(=O)OCC1c2ccccc2-c2ccccc21)C(=O)N[C@H](C(=O)N[C@@H](Cc1ccccc1)C(=O)N[C@@H](Cc1ccccc1)C(=O)N[C@@H](CCCCN)C(=O)NCC(=O)N[C@@H](Cc1ccccc1)C(=O)N[C@@H](C)C(=O)N[C@@H](Cc1c[nH]c2ccccc12)C(=O)N[C@@H](CC(N)=O)C(=O)N[C@H](C(=O)N[C@H]1CSSC[C@@H](C(=O)N[C@@H](Cc2c[nH]cn2)C(=O)N[C@@H](CCCNC(=N)N)C(=O)N[C@@H](CCCNC(=N)N)C(=O)N[C@@H](C)C(=O)N[C@@H](CC(N)=O)C(N)=O)NC(=O)[C@H](C(C)C)NC(=O)[C@H](CCCNC(=N)N)NC(=O)[C@H](C(C)C)NC(=O)CNC(=O)[C@H](CC(N)=O)NC(=O)[C@H](CCCNC(=N)N)NC(=O)[C@H](Cc2ccc(O)cc2)NC(=O)[C@H](C(C)C)NC1=O)C(C)C)C(C)C  mean platelet volume (ICR mice, blood; intraperitoneal, 10 mg/kg, day 5): 6.33 ± 0.09 fL
C[C@@H](NC(=O)N1C(=O)[C@H](Cc2ccnc(N)c2)[C@H]1C(=O)O)C1CCCCC1  incidence of decreased neutrophil (healthy adult Chinese volunteers; continuous intravenous infusion, 1.5 mg/kg/h, 5-day infusion, CTCAE 5.0 grading): 0%
CCc1cc2c(cc1CC)CC(NC[C@H](O)c1ccc(O)c3[nH]c(=O)ccc13)C2  absorption rate constant (human; oral): 1 h⁻¹
CCN1[C@@H](C(=O)NC23CCC(C(=O)O)(CC2)CC3)[C@H](c2cccc(Cl)c2F)[C@]2(C(=O)Nc3cc(Cl)ccc32)C12CCCCC2  Ageusia incidence (patients with advanced solid tumours; oral, 150 mg): 12.5%
COC[C@@H](CC(C)C)NC(=O)c1ccc(C)c(C)c1  micronucleated PCE per 1000 PCE (Hsd:ICR (CD-1) mouse, male, bone marrow; oral, 1352 mg/kg, 24 h): 0
CC(=O)c1c(C)c2cnc(Nc3ccc(C4CCN(CCS(C)(=O)=O)CC4)cn3)nc2n(C2CCCC2)c1=O  patients with serious AE (HR+/HER2- advanced breast cancer patients; oral, 25 mg): 0%
O=C(Nc1ccccc1)C1CCN(C(=O)Oc2cccnc2)CC1  subjects with Syncope adverse event (adverse event reporting; healthy women; oral, 100 mg): 0%
CCc1ccc(CC/C=C/c2ccc3c(c2)C(=O)CC3)cc1  Fibrinogen (Sprague-Dawley rat, female; oral, 450 mg/kg/day, 14 days): 2.8 g/L
O=S(=O)(Nc1ccccc1)c1ccc(NC(=S)Nc2ccccc2)cc1  blood chemistry level (measured: Ca; female mouse, blood; oral, 80 mg/kg daily, 14 days): 9.9 mg/dL
C[C@H]1COCCN1c1nc(NCc2cccnc2C(F)(F)F)c2cccnc2n1  plasma concentration (anaesthetized rat, plasma; intravenous, 3 mg/kg, 5 min): 11000 ng/mL
Cc1c(COC(=O)[C@@H]2[C@H](/C=C(\Cl)C(F)(F)F)C2(C)C)cccc1-c1ccccc1 (racemic)  hepatic intrinsic clearance (IVIVE scaling; human adult): 206 L/h/kg liver
COc1ncccc1-c1cnn2ccc(N3CCN(C(=O)OC(C)C)CC3)nc12  free drug concentration (mouse, SNL model, plasma; oral, 10 mg/kg, 120 min): 72 nM
Cc1cc(C)c(CNC(=O)c2cc(Cl)c3c(c2C)O[C@@](C)([C@H]2CC[C@H](N(C)C)CC2)O3)c(=O)[nH]1  incidence of lactic acidosis (relapsed/refractory NHL patients; dose not given, trial, safety set, treatment-related TEAE grade 5): 0%
COc1ccc(C[C@@H]2NC(=O)[C@H]([C@@H](C)O)NC(=O)[C@@H]3[C@@H]4CCN3C(=O)[C@@H]3Cc5cn(c6ccc(F)cc56)CCCCCCN(Cc5ccc(cc5)CCNC(=O)[C@]5(C)CCCN5C2=O)C(=O)CCC(=O)N[C@@H](C)C(=O)N[C@H](CNC(=O)CCCCC[N+](C)(C)C)C(=O)N[C@@H](Cc2cccc(c2)CNC(=O)CO4)C(=O)N3)cc1  participants with adverse event (measured: Dizziness; humans; concentration not given, Study-001): 2%
CN1CC[C@@H](c2c(O)cc(O)c3c(=O)cc(-c4ccc(C(F)(F)F)cc4Cl)oc23)[C@@H]1CO  tolerability (human, relapsed/refractory hematologic malignancies; up to 200 mg): not toxic
Cn1ncc(-c2nc(N[C@H]3CC[C@H](N)CC3)ncc2Cl)c1CC1CC1  alanine aminotransferase increase incidence (phase I dose escalation; human patients; dose not given, any-grade TEAE; baseline: patients): 7%
CC1(C)C(C=C(Cl)Cl)C1C(=O)OC(C#N)c1ccc(F)c(Oc2ccccc2)c1 (stereo not drawn)  hepatic intrinsic clearance (IVIVE scaling; human adult): 3710 L/h/kg liver
C/C(=N\C#N)N(C)Cc1ccc(Cl)nc1  recovery (soil; 0 days, nominal 1.1): 59%
